Results collected from several papers.
Target: Phosphatidylinositol 5-phosphate 4-kinase type-2 gamma (PIP4K2C, Homo sapiens, UniProt Q8TBX8)

| SMILES | test | setting | scale | remaining binding [%] |
| --- | --- | --- | --- | --- |
| CCN1CCN(Cc2ccc(C(=O)Nc3ccc(C)c(NCc4cnc5[nH]ccc5c4OC)c3)cc2C(F)(F)F)CC1 | binding, competition with immobilised ligand | 1 µM |  | 20 |
| CC(C)=CC1OC(C)(C)C2C=C3C(=O)C(Cl)=CC(O)C3C3C(O)C4OC4C(=O)C132 (centres unmarked) | cell-free assay, competition with immobilised ligand | 10 µM |  | 86 |
| CNC1C[S+]2CC[S+]3CC[S+](C1)[Ru-4]321([N]=C=S)[n]2c3ccc(OC)cc3c3c4c(c5cc(F)c[n+]1c5c32)C(=O)NC4=O (centres unmarked) | KinomeScan | 0.1 µM | relative to: untreated | 95 |
| CC(C)C(O)C#Cc1ccc2[nH]c3c(c2c1)-c1nc(N)ncc1CCC3 (centres unmarked) | binding, competition with immobilised ligand | 1 µM |  | 1.9 |
| COc1cc(Nc2nccc(-c3cnn4nc(OC)ccc34)n2)cc(C(F)(F)F)c1 | binding, competition with immobilised ligand | 1 µM |  | 56 |
| C=CC(=O)N1CCc2ccc(-n3c(=O)ccc4cnc5ccc(-c6cnn(C)c6)cc5c43)cc21 | KINOMEscan | 1 µM | relative to: DMSO control | 100 |
| CCC(O)(C#Cc1ccc2[nH]c3c(c2c1)-c1nc(N)ncc1CCC3)CC | binding, competition with immobilised ligand | 1 µM |  | 15 |
| C=CC(=O)N1CCCC(n2c(=O)c3ncccc3n(Cc3ccc(Oc4ccccc4)cc3)c2=O)C1 (centres unmarked) | cell-free assay, competition with immobilised ligand | 1 µM |  | 99 |
| Cc1ccc(-c2c(/C=C(\C#N)C(=O)NC(C)C)n(CCCO)c3ncnc(N)c23)cc1 | cell-free assay, competition with immobilised ligand | 1 µM |  | 95 |
| Nc1ncc2c(n1)-c1c([nH]c3ccc(C#CC4CC4)cc13)CCCC2 | binding, competition with immobilised ligand | 1 µM |  | 88 |
| Cc1cnc2nc1Nc1cccc(c1)COC/C=C/COCc1cc(ccc1OCCN1CCOCC1)N2 | binding, competition with immobilised ligand | 0.1 µM |  | 43 |
| Cn1cncc1C#Cc1ccc2[nH]c3c(c2c1)-c1nc(N)ncc1CC3 | binding, competition with immobilised ligand | 1 µM |  | 5.9 |
| COc1c(Cl)cccc1Nc1c(-c2ccncc2C#C[C@@]2(C)CCCN2C(=O)/C=C/CN(C)C)[nH]c2c1C(=O)NCC2 | binding, competition with immobilised ligand | 3 µM |  | 100 |
| CNC(=O)C1CCN(c2cc(C)c(F)cc2NC(=O)c2ccc(-c3cc(O)ccc3C)c(C)c2)CC1 | binding, competition with immobilised ligand | 1 µM |  | 100 |

A few entries again:
| SMILES | test | setting | scale | remaining binding [%] |
| --- | --- | --- | --- | --- |
| Nc1ncc2c(n1)-c1c([nH]c3ccc(C#CC4CC4)cc13)CCCC2 | binding, competition with immobilised ligand | 1 µM |  | 88 |
| Cc1cnc2nc1Nc1cccc(c1)COC/C=C/COCc1cc(ccc1OCCN1CCOCC1)N2 | binding, competition with immobilised ligand | 0.1 µM |  | 43 |
